Experimental data gathered from unrelated publications.
Protocols differ between the studies behind these lines. Numbers after ± are the reported error.

| Compound | test | test system | setting | tissue uptake |
| --- | --- | --- | --- | --- |
| CN(C)c1ccc(-c2nc3ccc(OCCCCCN4CCN5CCN(CC4)CC(=O)[O][Al]([18F])[O]C(=O)C5)cc3s2)cc1 | – | ICR mouse, spleen | intravenous, 60 min | 1.01 ± 0.4 %ID/g |
| CCCC[C@H](NC(=O)CN1CCC(NC(=O)CN2CCN(CC(=O)O)CCN(CC(=O)O)CCN(CC(=O)O)CC2)CC1)C(=O)N[C@H]1CC(=O)NCCCC[C@@H](C(N)=O)NC(=O)[C@H](Cc2c[nH]c3ccccc23)NC(=O)[C@H](CCCNC(=N)N)NC(=O)[C@@H](Cc2ccccc2)NC(=O)[C@H](Cc2c[nH]cn2)NC1=O [gallium-68 labelled] | biodistribution | C57BL/6J mouse male tumour-bearing, seminal vesicle | 1 h post injection, unblocked | 0.3 ± 0.1 %ID/g |
| CCCC[C@H](NC(=O)CNC(=O)CNC(=O)CN1CCN(CC(=O)O)CCN(CC(=O)O)CCN(CC(=O)O)CC1)C(=O)N[C@H]1CC(=O)NCCCC[C@@H](C(N)=O)NC(=O)[C@H](Cc2c[nH]c3ccccc23)NC(=O)[C@H](CCCNC(=N)N)NC(=O)[C@@H](Cc2ccccc2)NC(=O)[C@H](Cc2c[nH]cn2)NC1=O [copper-64 labelled] | – | female C57 mouse, B16/F1 melanoma, lung | intravenous, 0.037 MBq, 4 h | 4.39 ± 0.36 %ID/g |
| CC(C)C[C@H](NC(=O)C[C@H](O)[C@H](CC(C)C)NC(=O)[C@H](Cc1c[nH]cn1)NC(=O)CNC(=O)[C@@H](NC(=O)[C@H](C)NC(=O)[C@H](Cc1c[nH]c2ccccc12)NC(=O)[C@H](CCC(N)=O)NC(=O)[C@@H](Cc1ccccc1)NC(=O)CCNC(=O)CCNC(=O)CN1CCN(CC(=O)O)CCN(CC(=O)O)CCN(CC(=O)O)CC1)C(C)C)C(N)=O [lutetium-177 labelled] | – | mouse PC-3 xenograft, tumour | intraperitoneal, 200 pmol, 4 h, without PA | 7.2 ± 2.1 %ID/g |
| COC(=O)c1ccc(-c2cn(Cc3cc(Cl)ccc3O[11CH3])nn2)cc1 | PET/CT | C57BL/6 mouse, kidney | 2 min | 3.56 %ID/cc |
| CC(C)[C@H](NC(=O)[C@@H]1CCCN1C(=O)[C@H](CCCNC(=N)N)NC(=O)[C@H](CS)NC(=O)[C@H](Cc1c[nH]c2ccccc12)NC(=O)[C@H](CCCNC(=N)N)NC(=O)[C@@H](Cc1ccccc1)NC(=O)[C@H](Cc1c[nH]cn1)NC(=O)[C@H](CCC(=O)O)NC(=O)[C@H](CS)NC(=O)[C@H](CS)NC(=O)COCCOCCNC(=O)[C@@H]1CC(=O)N[C@@H](CCCNC(=N)N)C(=O)NCC(=O)N[C@@H](CC(=O)O)C(=O)N[C@H](Cc2ccc(O)cc2)C(=O)N1)C(N)=O [technetium-99m labelled] | – | nude mouse, M21 melanoma xenograft, liver | intravenous, 2 h | 1.12 ± 0.05 %ID/g |
| CC(C)[C@H](NC(=O)[C@@H]1CCCN1C(=O)[C@H](CCCNC(=N)N)NC(=O)[C@H](CS)NC(=O)[C@H](Cc1c[nH]c2ccccc12)NC(=O)[C@H](CCCNC(=N)N)NC(=O)[C@@H](Cc1ccccc1)NC(=O)[C@H](Cc1c[nH]cn1)NC(=O)[C@H](CCC(=O)O)NC(=O)[C@H](CS)NC(=O)[C@H](CS)NC(=O)[C@@H]1CC(=O)N[C@@H](CCCNC(=N)N)C(=O)NCC(=O)N[C@@H](CC(=O)O)C(=O)N[C@H](Cc2ccc(O)cc2)C(=O)N1)C(N)=O [technetium-99m labelled] | – | C57 mouse, female, B16/F1 melanoma, muscle | intravenous, 0.037 MBq, 4 h | 0.2 ± 0.02 %ID/g |
| O=C(O)CCC(NP(=O)(O)OCCC[C@@H](NC(=O)CC[C@H](NC(=O)CCCCCNC(=O)c1ccc([18F])cc1)C(=O)O)C(=O)O)C(=O)O (some centres unmarked) | – | mouse, CWR22Rv1 xenograft, kidney | dose not given, 4 h, blocking agent pre-dosed | 1.49 ± 0.268 %ID/g |

For quick reference, copied from above:
| Compound | test | test system | setting | tissue uptake |
| --- | --- | --- | --- | --- |
| CCCC[C@H](NC(=O)CNC(=O)CNC(=O)CN1CCN(CC(=O)O)CCN(CC(=O)O)CCN(CC(=O)O)CC1)C(=O)N[C@H]1CC(=O)NCCCC[C@@H](C(N)=O)NC(=O)[C@H](Cc2c[nH]c3ccccc23)NC(=O)[C@H](CCCNC(=N)N)NC(=O)[C@@H](Cc2ccccc2)NC(=O)[C@H](Cc2c[nH]cn2)NC1=O [copper-64 labelled] | – | female C57 mouse, B16/F1 melanoma, lung | intravenous, 0.037 MBq, 4 h | 4.39 ± 0.36 %ID/g |
